Experimental data collected from several papers.
A part holds a random share of what one study measured.

Sample 1 — organism: Saccharomyces cerevisiae; effect on: binding; method: yeast competitive growth sequencing; form: peptide; strain: cyclin B3-Cln2 fusion strain; notes: peptide tiling library; reading: direction not given; endpoint: enrichment score
SFLIEYEFLIPPSLKP: 1.32
PLRKAKRARLCSSSSS: 1.57
ALLRRLQDVANDRGSH: -0.889
RVSGLLSWTLSRVLWL: -1.09
EPKTLFLGAGDFQF: 1.64
VLLKRLQDVVSERANH: -1.48
LKGRRLVFDN: -0.0828
LAKRALKYTD: -1.8
IQKKLRFEDTLEFVGF: -1.47
AGSAKRRLFGEDPPKE: -0.826
ISRLFPPRTPGWHQLQ: -2.39
TRRRLFVENDSP: 0.537
RSLKLDGLLEEN: -2.94
KRRLDLETDHQY: -0.161
PFSENVSAVQKLDFSD: 1.13
CFRCLLFSFSGRSGVE: -1.68

Sample 2 — method: protein-binding microarray; form: double-stranded DNA, one strand shown; medium: in vitro; tested at: 0.8 µM; notes: whole 60-bp probe, no competitor; reading: higher = stronger binding; endpoint: fluorescence intensity
Target: Centromere-binding protein 1, full length, N-terminal tag (CBF1, Saccharomyces cerevisiae, UniProt P17106, residues 1-351)
Sequence of UniProt P17106 (whole entry, looked up): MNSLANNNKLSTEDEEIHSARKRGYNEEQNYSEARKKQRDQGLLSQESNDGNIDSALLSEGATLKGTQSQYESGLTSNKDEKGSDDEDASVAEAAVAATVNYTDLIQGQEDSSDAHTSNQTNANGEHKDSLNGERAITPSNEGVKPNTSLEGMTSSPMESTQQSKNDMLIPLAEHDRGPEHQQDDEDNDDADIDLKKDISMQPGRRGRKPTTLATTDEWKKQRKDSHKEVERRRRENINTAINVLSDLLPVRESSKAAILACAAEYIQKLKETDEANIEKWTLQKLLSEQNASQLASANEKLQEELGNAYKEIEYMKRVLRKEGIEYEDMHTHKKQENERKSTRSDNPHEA
CTACTAGAATAGTATCACGTACAGTAGTTTAATTTCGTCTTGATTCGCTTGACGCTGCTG: 641 a.u.
CTATGAAATTTGTTTCTCGTGACATTAATGATCTTCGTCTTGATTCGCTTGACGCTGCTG: 1770 a.u.
GAAAATAGTTAGGTGCTCGTGACAAACCTTTTTTAGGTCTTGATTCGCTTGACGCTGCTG: 1330 a.u.
GAAGGTAGTAGTACTAACATCAGTAAAAGTAACTAGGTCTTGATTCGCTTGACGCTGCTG: 505 a.u.
GAAAAAATAAAATAAATCGTGCGCCCATTATAATAGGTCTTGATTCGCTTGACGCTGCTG: 512 a.u.
CTATTGTACAGTTTTCACATGACGATTGGAAATTTCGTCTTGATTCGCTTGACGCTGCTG: 797 a.u.
GAACTTACCCCTCTACACGTGGCTTCTCAGAAGTAGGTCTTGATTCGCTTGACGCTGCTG: 2000 a.u.
CTATGATCTTGTATTCATGTGATTGTAAATAATTTCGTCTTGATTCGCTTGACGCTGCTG: 1560 a.u.
GAACATTTCTCTGCTCACGTTTAATAACAGGGTTAGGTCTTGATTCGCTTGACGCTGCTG: 826 a.u.
GAAGATATAAATACGAACGTGGTTAGTATATAGTAGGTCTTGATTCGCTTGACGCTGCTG: 641 a.u.
CTATCATGGGCACGTCACCGCACAACAGCCGCCTTCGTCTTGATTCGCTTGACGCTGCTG: 554 a.u.
CTATTGCAACATGTTCACATGTTCATCCCCCTGTTCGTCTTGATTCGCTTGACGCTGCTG: 967 a.u.
GAAGTTTGAACTCACGTGTTGCTGCTGAATTAGTAGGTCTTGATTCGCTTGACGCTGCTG: 4810 a.u.
CTACTTGTAATCGTTCATGTGGCAACTGTTTCATTCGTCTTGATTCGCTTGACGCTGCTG: 584 a.u.
GAAAGTGCAAAAGTTCATATGATGCTATCTCCCTAGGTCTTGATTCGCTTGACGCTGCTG: 513 a.u.
CTACTAGCTCTGCCACTGGTGGTGCTGATAGCGTTCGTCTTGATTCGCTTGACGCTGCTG: 509 a.u.
CCTAACTACTATACACACATGCTATAGCTTCGTACAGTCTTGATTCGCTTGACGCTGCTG: 574 a.u.
CTATTCCCTTCTCACGTGTCAATAAAGCATCACTTCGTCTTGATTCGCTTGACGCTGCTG: 5710 a.u.

Sample 3 — method: RNA Bind-n-Seq; form: RNA; medium: in vitro; tested at: 365 nM; baseline: no-protein control; reading: higher = stronger binding; endpoint: RBNS enrichment (R)
Target: RNA binding protein fox-1 homolog 2, RRM domain, GST-SBP tag (RBFOX2, Homo sapiens, UniProt O43251-10, residues 100-194)
Notes: natural RNA segment, single round, ends assumed
Construct (chain): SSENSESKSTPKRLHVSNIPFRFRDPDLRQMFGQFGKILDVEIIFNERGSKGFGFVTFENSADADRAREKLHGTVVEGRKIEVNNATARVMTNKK
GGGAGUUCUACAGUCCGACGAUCAAUCCACAGUGCAGAAAAGCCUCAAAGCACAGGAGUUUAGGAGAAGCUUUGGUUGUAGUGUGAGCAUCAUUUGGCAUUAGAGAAACCAUGUACUAGUGGAAAAGUCUAGUUGGAAUUCUCGGGUGCCAA: 0.736
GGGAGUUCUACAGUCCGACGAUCCUGUCUUGAGCUGGGCGUCUCUUUAAUUACUGCCUCUGCCCCGGACCCUUCUCUCUAGACUUGGGAAGCACUCCUUCCUAGAAGCCACACAUCACUCCAAGGCUCAGCUGUGGAAUUCUCGGGUGCCAA: 0.318
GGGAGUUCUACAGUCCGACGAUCUUUUUAAUUAUGUACUGGGGACAGGUUUUUGUCGCUUUACAUUGCUUCCUAGUUUACAGCAUGAUGCAAAUGAUUUUCUAACUUAGUGUUAGGAGAAAAUAUUUUCCAUCUGGAAUUCUCGGGUGCCAA: 0.548
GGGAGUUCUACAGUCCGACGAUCAGGGAUUUUUGUUCUUGUUGUUCUCGUUGUUGUUUUAAGUUUACUGGGGAAAGUGCAUUUGGCCAAAUGAAAUGGUAGUCAAGCCUAUUGCAACAAAGUUAGGAAGUUUGUGGAAUUCUCGGGUGCCAA: 1.43
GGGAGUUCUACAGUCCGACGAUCAUACUCUUGGUUGACAUCCCCUUCCUCAGCCCUCCCAGCCUACUCCCCAUCCCAGCUUUUAGAGGAUCUGCUCCACUGUCUCCUGGGGCAGUUGUGGGUCACUGUCCCUUUGGAAUUCUCGGGUGCCAA: 0.707
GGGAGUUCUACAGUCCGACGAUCAAACUCAAGUGGAGCUGAACUUUCACAAAGGGAAAGAUAAACCACAGAAGCCUGGCCCCAGAGACCUAAGACCUGUAUUGUGCAUUGUUUCCUAACUGCAUGUGAUAGACUGGAAUUCUCGGGUGCCAA: 4.48
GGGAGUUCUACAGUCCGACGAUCCAAGAGGAAACUUGAUAAUUUUAAACUCUUUUCCCCCUUUACCGUCAUCUAUCCUCUAUCUGUAUCAAGCUCACUGCGGAUCCUGCUGUAAAACUGGUGGGUAGCUGGGCUGGAAUUCUCGGGUGCCAA: 0.279
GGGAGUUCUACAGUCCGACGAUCGAUUUGCCAGUUUGGUGAAUACAGAUUGGUUCAUGGUUGUAGGUGUAGCUCAGAGUGCUUGUCUAACAUGCAAAAACCCUUGGAUUCAAUUUCUAGUACUGUUAGAAGAGUGGAAUUCUCGGGUGCCAA: 0.28
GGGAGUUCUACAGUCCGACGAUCUGUAUGUAUCAUAUGUUUGUUCAUCAAAGCUUUUUAAUCCAAAUAAAAACAACAGUUUGCAAAGUGAUUUGGAUCAGCCAGGUUUGGUGGUUCUGUUUAAAGUGUGUCAAUGGAAUUCUCGGGUGCCAA: 2.08
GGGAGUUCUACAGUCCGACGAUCGUCUCUUGUCAAUCCACAAGAACAAUGCAAAGUUAUGUUUGGGAACACUACAGGAAUAUGUAAUUGUUUCUUGCAGAAGUCUUAAGUCCACCCAAUAAUAAGAUCAGAAGUGGAAUUCUCGGGUGCCAA: 0.412
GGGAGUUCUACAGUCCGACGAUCAAGAUUCUGAGCUCUCUCUCUGUUUUGUUCUAGCCAUGAAUUUGCCUGAGAAACUUGUAACCUAUGUGCCUCAAUAUAUUCCAUAGAAAGUAGGUCCCCCUGCCUUCUCCUGGAAUUCUCGGGUGCCAA: 0.335
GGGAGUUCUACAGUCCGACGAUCCCUUCAUUUUAACUGUUAUGUCAUACUGUUAUGUUGACAUAUUUCUUUAUAAGAGAAUAGAGGCAAAAGUAUAGAACUGAGGAUCAUUUGUAUUUUUGAGUUGGAAAUUAUGGAAUUCUCGGGUGCCAA: 0.624

Sample 4 — method: protein binding microarray; form: double-stranded DNA, one strand shown; medium: in vitro; tested at: not given; baseline: not given; reading: higher = stronger binding; endpoint: E-score
Target: Histone acetyltransferase KAT6A, winged helix 1, GST fusion (KAT6A, Homo sapiens, UniProt Q92794, residues 1-85)
Notes: 8-mer, flanks averaged, mean of 2 arrays, mostly near background
Construct (chain): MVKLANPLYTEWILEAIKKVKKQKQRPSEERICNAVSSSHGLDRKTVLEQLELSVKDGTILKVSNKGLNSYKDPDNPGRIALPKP
ACACACGC: 0.122
TATCTACA: -0.132
AAAGGGCT: -0.178
GCAGTTAC: 0.0904
AATTCCTC: -0.161
CCAACGCC: 0.115
CCGCGGTA: 0.45
TATGTCCA: -0.0693
CGAGTATA: -0.137
GGCCGTCA: 0.319
AGAGTTGG: -0.184
ACTCTTAC: -0.226
TATACCAA: -0.107
GCTGAGCA: -0.161
AACTACGT: -0.035
ACGTTGGA: -0.216
AGTCTTAT: -0.11
AGTTCTTA: -0.28
CATTCAAC: -0.0751
AGAGTTAT: -0.148
GAGGTAGC: 0.0161
AGTTACTC: -0.102

A few entries again (sample 4):
AACTACGT: -0.035
AGTTACTC: -0.102
GAGGTAGC: 0.0161
AAAGGGCT: -0.178
ACACACGC: 0.122
TATCTACA: -0.132
